Measurements gathered from unrelated publications.
Lines come from different studies, so protocols differ.

`O=C(CN1C(=O)CSC1=O)Oc1ccc(/C=N/NC(=S)Nc2cccc(Cl)c2)cc1Cl` has an MIC of 32.2 µM (Mycobacterium tuberculosis; Alamar blue; MDR 210).
`COc1c(N2CC3CCCNC3C2)c(F)cc2c(=O)c(C(=O)OCc3cnc([N+](=O)[O-])s3)cn(C3CC3)c12` (stereo not shown) gave an MIC of 0.125 µM (Mycobacterium tuberculosis; MDR).
`Oc1cc(CNc2ccccc2)ccc1Oc1ccc(Cl)cc1Cl` gave an MIC of 10 µg/mL (Mycobacterium tuberculosis; mc2 5855).
For `COc1ccc2nccc(CC[C@H]3OC[C@H](NC(=O)c4ccc(C)cc4)CO3)c2c1`, the MIC was > 32 µg/mL (Mycobacterium tuberculosis; H37Rv rpoB S450L mutant).
`COc1cc(/C=N/NC(=O)c2ccncc2)ccc1OC(=O)CN1C(=O)CSC1=O` gave an MIC of 149 µM (Mycobacterium tuberculosis; Alamar blue; MDR 210).
`C[C@]12CC[C@H](OC(=O)C3CC3)[C@@](C)(COC(=O)C3CC3)C1C[C@H](O)[C@@]1(C)Oc3cc(-c4cccnc4)oc(=O)c3[C@H](O)C21` (stereo partly shown) gave a current density of 13.2 pA/pF (Nan-Iav channel Halyomorpha halys; ion current; HEK-293T; concentration not given).
The MIC of `O=C(CN1C(=O)CSC1=O)Oc1ccc(/C=N/NC(=O)c2ccncc2)cc1` is reported as 10 µM (Mycobacterium tuberculosis; Alamar blue; MDR 210).
`COc1ccc2nccc(CC[C@H]3OC[C@H](NC(=O)c4ccc(Cl)c(Cl)c4)CO3)c2c1` gave an MIC of 0.5 µg/mL (Mycobacterium tuberculosis; H37Rv rpoB S450L mutant).
For `N#Cc1ccc(Oc2ccc(Cl)cc2Cl)c(O)c1`, the MIC was 12.5 µg/mL (Mycobacterium tuberculosis; mc2 5855).
With `CN[C@@H]1[C@H](O)[C@H](NC)[C@H]2O[C@]3(O)[C@H](O[C@@H]2[C@H]1O)O[C@H](C)C[C@H]3NC(=O)Cc1ccccn1` the MIC was 2 to 4 µg/mL (Mycobacterium tuberculosis; MDR clinical isolates).
For `COc1ccc2nccc(CC[C@H]3OC[C@H](NC(=O)c4ccc(Cl)cc4)CO3)c2c1`, the MIC was 2 µg/mL (Mycobacterium tuberculosis; H37Rv rpoB S450L mutant).
With `CCCCCCNCc1ccc(Oc2ccc(Cl)cc2Cl)c(O)c1` the MIC was 5 µg/mL (Mycobacterium tuberculosis; mc2 5855).
`CCOc1cc(/C=N/NC(=O)c2ccccn2)ccc1OC(=O)CN1C(=O)CSC1=O` gave an MIC of 72.3 to 167 µM (Mycobacterium tuberculosis; Alamar blue; MDR 210).
With `CN[C@@H]1[C@H](O)[C@H](NC)[C@H]2O[C@]3(O)[C@H](O[C@@H]2[C@H]1O)O[C@H](C)C[C@H]3NC(=O)Cc1ccc(F)cn1` the MIC was 2 to 4 µg/mL (Mycobacterium tuberculosis; MDR clinical isolates).
`O=C(CN1C(=O)CSC1=O)Oc1ccc(/C=N/NC(=O)c2cccnc2)cc1Br` gave an MIC of 268 µM (Mycobacterium tuberculosis; Alamar blue; MDR 210).
For `COc1ccc2ncc(F)c(CC[C@@]3(O)CO[C@@H]4[C@@H](NCc5ccc(Cl)c(Cl)c5)CO[C@@H]43)c2n1`, the MIC was 1 µg/mL (Mycobacterium tuberculosis; H37Rv rpoB S450L mutant).

Excerpt of the above:
`CCOc1cc(/C=N/NC(=O)c2ccccn2)ccc1OC(=O)CN1C(=O)CSC1=O` gave an MIC of 72.3 to 167 µM (Mycobacterium tuberculosis; Alamar blue; MDR 210).
